Measured values collected from several papers.
Numbered parts are unrelated; each lists some results of a single study. Substitutions count along the parent as printed.

Sample 1 — method: protein-binding microarray; molecule type: double-stranded DNA, one strand shown; medium: in vitro; tested at: 250 nM; notes: 60-bp whole probe; together with: salmon DNA 0.4 mg/ml; baseline: random background probes; reading: higher = stronger binding; constant ends, left off below: GCCTAGCAC … GTCTTGATTCGCTTGACGCTGCTG
Target: Interferon regulatory factor 5, full length, phosphomimetic (IRF5, Homo sapiens, UniProt Q13568-2, residues 1-514, K96S/S451D/S453D/S456D/S462D)
| Strand | log fluorescence [z-score] |
| --- | --- |
| TTAGGTCTCCTTCTCCTTTCGTGCTAG | 0.749 |
| TCACTTCTGGTCTTCTGACTGTGCTAG | 0.501 |
| ATTGCTTTCTCTTTCACTACGTGCTAG | 7.53 |
| TTTCTTCTAGACTTCTCCATGTGCTAG | 4.7 |
| TTTGAACTGGGGTATCGATTAGTGCTA | 2.28 |
| TTAGAACTGGGGTATCGATTGGTGCTA | 2.14 |
| GACGATATCAGTATCGAGCCGTGCTAG | 2.56 |
| CCCAATTCTCTTTTCACTTTGTGCTAG | 1.32 |
| TTAGATATCGGGACTGGATGAGTGCTA | 1.14 |
| GACGATTTCGGGTTTAGAGACGTGCTA | 3.09 |
| GACGGTATCGGACTGGGGAAGTGCTAG | 1.21 |
| TACTACATATCACCTCAATCGTGCTAG | 0.754 |
| TTAGGTATCTTTCTCCTTTAGTGCTAG | 1.25 |
| CTAGGACTGGACTTTCGGTTAGTGCTA | 9.16 |
| TTAGGTATCGGGTAACGGTTAGTGCTA | 4.44 |
| TTAGTTTCCCTTTTCCTTTAGTGCTAG | 4.35 |
| GACGATTCCAGTTTGGAGACGTGCTAG | 0.0312 |
| GACGGACGGCTTCTCCTGACGTGCTAG | -0.58 |
| GACGGAGTGCTACTGCTGACGTGCTAG | -0.458 |
| GACGATATGGGGTATCGAGACGTGCTA | 0.587 |
| TTAGGTTTCGGTTCCGGTTTGTGCTAG | 10.8 |
| TCATGTCTGTTTTTGCTACTGTGCTAG | 1.03 |
| TGAGGTTTCGGTATCGGTTAGTGCTAG | 10.7 |

Sample 2 — target: CCND1, cyclin fold, Cln2 fusion (human); method: yeast growth competition, sequencing; medium: yeast; notes: strong parent motif; baseline: not given; reading: higher = stronger binding
Starting sequence: RBL1 docking peptide (human); GSAKRRLFGEDPP; partner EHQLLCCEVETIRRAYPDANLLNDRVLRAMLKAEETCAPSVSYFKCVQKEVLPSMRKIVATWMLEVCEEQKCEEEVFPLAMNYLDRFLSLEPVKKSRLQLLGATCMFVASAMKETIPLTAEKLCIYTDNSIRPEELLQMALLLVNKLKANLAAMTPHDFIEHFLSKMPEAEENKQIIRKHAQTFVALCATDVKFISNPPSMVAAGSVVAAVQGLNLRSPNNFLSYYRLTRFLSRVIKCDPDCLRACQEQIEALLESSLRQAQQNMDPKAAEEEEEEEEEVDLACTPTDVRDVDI
| Change | normalised enrichment score |
| --- | --- |
| R6D | 0.132 |
| F8P | 0.469 |
| G9V | 3.58 |
| G1K | 2.23 |
| D11V | 0.399 |
| G1T | 2.3 |
| P13A | 1.3 |
| P13K | 0.793 |
| G9T | 3.09 |
| R5Y | 1.11 |
| G1W | 1.86 |
| F8T | 0.645 |
| P12G | 1.51 |
| G9K | 1.62 |
| K4V | 2.25 |
| P12Q | 1.6 |
| A3E | 0.735 |
| R5M | 1.44 |
| L7C | 0.564 |
| S2L | 0.478 |
| K4S | 0.963 |
| S2Q | 1.15 |
| S2P | 0.923 |
| R6M | 1.46 |
| G9Q | 3 |

Sample 3 — method: RNA Bind-n-Seq; molecule type: RNA; medium: in vitro; tested at: 365 nM; baseline: no-protein control; reading: higher = stronger binding
Target: RNA binding protein fox-1 homolog 2, RRM domain, GST-SBP tag (RBFOX2, Homo sapiens, UniProt O43251-10, residues 100-194)
Notes: natural RNA segment, single round, ends assumed
Residues (chain): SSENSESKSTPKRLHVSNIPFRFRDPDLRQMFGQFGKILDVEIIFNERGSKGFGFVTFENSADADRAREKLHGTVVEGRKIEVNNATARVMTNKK
| Strand | RBNS enrichment (R) |
| --- | --- |
| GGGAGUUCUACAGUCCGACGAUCAGUGAAAUGAAUAUACAUGUCUAUGGACUUAAUAUCAUGCCCAGAUAUGAAGACCUCGUUCAACUUUGCAUAACACGUAGAGGUAAUAGCUAGGUGAUAGACAUUUUCAAUGGAAUUCUCGGGUGCCAA | 0.309 |
| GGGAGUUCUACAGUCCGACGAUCGAUAAAAGUCGGGGAUGGAAUGGGGGAAGAGGAAGGGCAGGAAAGCCCUCACCCUUUGCUGCCCUGGGGCCAUGGCCUCACCCCUCUGGAGGGCCAGAGGCAGGAGGUGGUGGAAUUCUCGGGUGCCAA | 0.387 |
| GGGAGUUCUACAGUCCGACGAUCUAUGUGGUUCGUGGCCUUCUUCUCACCCAUUGGGAAAACCAAACAGCCUCACACUCUGUCCCCAUCGCUCAUUGGCUUAACUCAAGUGAGACCCCAACUGGGCCUUUGCGUGGAAUUCUCGGGUGCCAA | 0.368 |
| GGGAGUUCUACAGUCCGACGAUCUUAACCCUGACUUUGGGAUCUGCCUGCAUCGGCGUUGGCCACUGUCCCCAUUUACAUUUUCCCCACUCUGUCUGCCUGCAUCUCCUCUGUUCCGGGUAGGCCUUGAUAUCUGGAAUUCUCGGGUGCCAA | 7.57 |
| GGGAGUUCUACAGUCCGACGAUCCCAGAUUUAAAUCCAGCUGAGGCUCCCUUUGUUUUCAGUUCCAUGUAACAAUCUGGAAGGAAACUUCACGGACAGGAAGACUGCUGGAGAAGAGAAGCGUGUUAGCCCAUUGGAAUUCUCGGGUGCCAA | 0.379 |
| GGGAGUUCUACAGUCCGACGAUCAUUUUCAACUUUAUAAAGAUAAAAUAUCCUCAGGGGUGGAGAAGUGUCGUUUUCAUAACUUGCUGAAUUUCAGGCAUUUUGUUCUACAUGAGGACUCAUAUAUUUAAGCCUGGAAUUCUCGGGUGCCAA | 0.77 |
| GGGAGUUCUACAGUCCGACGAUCUUUGCCAAGGCCUUUAUUUUAAAGUGUUCUUGGAAAAUCGUAUUUAAAUUUGCAAUUAUUCUAAUUUGAUAUAGAGAGAAACUGACCUAUUUAACAAAUGGACUCUCUUAUGGAAUUCUCGGGUGCCAA | 0.422 |
| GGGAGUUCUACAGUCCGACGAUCUCCCACUAAAACUUAGGCUGGGAAUGACAGUUUUCCUUUCCAGUCUCAGUUCAUGAGAACCCAUUUCCCAGAGGUUCGUUUUGAGCCAAUAGCCUAUUUUGAACCAUUUGUGGAAUUCUCGGGUGCCAA | 0.168 |
| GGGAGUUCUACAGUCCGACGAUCUAUAGGAACAGCCCAGCACAGGUAUUUCAGGUGUGAAAGAAUCAGUAGGACCAGGCCACCGCUAGUGCUUGUGGAGAUCACAGCCCCACCCUUGUCCCUCAGCAACAUCCUGGAAUUCUCGGGUGCCAA | 0.36 |
| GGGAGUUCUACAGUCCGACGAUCUUUGUGGAUGUGCAGAACUGCAUGAGCCGUGAGCAGAGCCACCGAGGCCCCCUGCAGGAGGUCCGCUGCAGAUGGCACUGCCCUUCCUUCAGGUCAGGUGGCCCACCACCUGGAAUUCUCGGGUGCCAA | 4.19 |
| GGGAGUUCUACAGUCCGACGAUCCUUCCUCCUGGCUGCACAGACACCUCUGCUUGGCCACAGCUUUGCUCUUUGGUCCUCAGGCCACCAGACCCCUCACAGCAUGGCCCUUGGCUCUUCCUGCACUGCCCUCAUGGAAUUCUCGGGUGCCAA | 1.62 |
| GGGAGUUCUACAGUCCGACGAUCGGUCUCAGGCAGCACCACACUGGGUGCGUCUCCAGUCAUCUGUAAGAGCUUGCUCCAGAUUCUGAUGCAUACGGCUAUAUUGGUUUAUGUAGUCAGUUGCAUUCAUUAAAUGGAAUUCUCGGGUGCCAA | 0.349 |

Sample 4 — method: DHFR PCA, deep sequencing; medium: yeast; together with: (+)-ABA 1.4 µM; baseline: wild-type fitted maximum; reading: higher = stronger binding
Target: ABI1, truncated, D143A, DHFR fusion (Arabidopsis thaliana)
Notes: methotrexate growth selection, single substitutions
Starting sequence: PYL1, truncated, DHFR fusion (Arabidopsis thaliana); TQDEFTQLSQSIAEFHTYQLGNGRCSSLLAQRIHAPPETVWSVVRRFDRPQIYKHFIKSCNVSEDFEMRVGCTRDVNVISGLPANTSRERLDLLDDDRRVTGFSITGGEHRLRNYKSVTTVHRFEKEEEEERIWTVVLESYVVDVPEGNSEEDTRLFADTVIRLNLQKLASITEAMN
| Change | relative binding score [%] |
| --- | --- |
| I105D | -0.496 |
| R69D | 22.1 |
| L138T | -5.51 |
| G21Q | 56.2 |
| Q19I | 37.9 |
| R74N | -4.38 |
| L112A | -5.49 |
| V161M | 62.8 |
| V143Q | -2.8 |
| K58L | 6.31 |
| Q31V | 13.5 |
| R88V | 63.9 |
| N165Y | -9.17 |
| R123C | 40.1 |
| E130T | 62.2 |
| V76I | 75.6 |
| C60T | 27.4 |
| E125M | 58 |
| E131Q | 69.7 |

Sample 5 — Molecule: RNF141 RING domain (UniProt Q8WVD5); method: yeast two-hybrid; medium: yeast; notes: mostly zero background; baseline: not given; reading: higher = stronger interaction
| target | lacZ reporter activity |
| --- | --- |
| UBE2B UBC core domain (UniProt P63146) | 0 |
| UBE2S UBC core domain (UniProt Q16763) | 0 |
| UBE2J1 UBC core domain (UniProt Q9Y385) | 0 |
| UBE2M UBC core domain (UniProt P61081) | 0 |
| BIRC6 UBC core domain (UniProt Q9NR09) | 0 |
| UBE2T UBC core domain (UniProt Q9NPD8) | 0 |
| UBE2I UBC core domain (UniProt P63279) | 0 |
| UBE2Q1 UBC core domain (UniProt Q7Z7E8) | 0 |
| UBE2L3 UBC core domain (UniProt P68036) | 0 |
| UBE2O UBC core domain (UniProt Q9C0C9) | 0 |
| UBE2E3 UBC core domain (UniProt Q969T4) | 0 |
| UBE2Z UBC core domain (UniProt Q9H832) | 0 |
| UBE2R2 UBC core domain (UniProt Q712K3) | 0 |
| UBE2D1 UBC core domain (UniProt P51668) | 0 |
| UBE2G1 UBC core domain (UniProt P62253) | 0 |
| UBE2C UBC core domain (UniProt O00762) | 0 |
| UBE2J2 UBC core domain (UniProt Q8N2K1) | 0 |

Sample 6 — target: CEBPA, bZIP domain (human); method: DHFR protein complementation; medium: yeast; baseline: wild-type JUN-FOS pair; reading: higher = stronger binding
Notes: single substitutions, most at no-binding floor
Starting sequence: JUN, bZIP domain (human); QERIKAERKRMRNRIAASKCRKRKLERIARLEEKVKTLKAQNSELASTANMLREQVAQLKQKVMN; partner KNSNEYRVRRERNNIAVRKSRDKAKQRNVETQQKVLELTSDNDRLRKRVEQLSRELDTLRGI
| Change | binding fitness [natural log] |
| --- | --- |
| A57V | -1.51 |
| V56W | -1.51 |
| E32T | -1.45 |
| N42E | -1.43 |
| A57H | -1.48 |
| A57G | -1.4 |
| E33N | -1.43 |
| I28E | -1.18 |
| E32Q | -1.53 |
| R30P | -1.45 |
| A49M | -1.44 |
| A57N | -1.45 |
| M51H | -1.21 |
| Q55V | -1.5 |
| I28G | -1.43 |
| S43V | -1.45 |
